Results pooled from the literature.
Compare with care: the assays were run in different laboratories. Values after ≈ are worked out from the molar mass of the structure shown.
Organism: Micrococcus luteus

`CC[C@H](C)[C@H](N)C(=O)N1CCC[C@H]1C(=O)N[C@@H](Cc1ccccc1)C(=O)N[C@@H](Cc1c[nH]c2ccccc12)C(=O)N[C@@H](CCCNC(=N)N)C(=O)N[C@@H](Cc1c[nH]c2ccccc12)C(=O)N[C@@H](CC(C)C)C(=O)N[C@@H](CC(C)C)C(=O)N[C@@H](CCC(N)=O)C(=O)N[C@@H](CCCNC(=N)N)C(=O)N[C@@H](CC(C)C)C(=O)N1CCC[C@H]1C(=O)NCC(=O)O` gave an MIC of 4.76 µM (broth microdilution; ATCC 4698).
`c1ccc(CCNC2CCCc3c2[nH]c2ccc(C4CCCCC4)cc32)cc1` (centres unmarked) gave an MIC of 1 µg/mL (broth microdilution; DSM 1790).
For `CCc1ccn2c(C(=O)NC(C)c3ccccc3)c(C)nc2c1` (centres unmarked), the inhibition zone was 15 mm (microbial growth; ATCC10240; 2 mM).
The MIC of `Cc1ccc2[nH]c3c(c2c1)CCCC3NCCc1ccc(O)cc1` (centres unmarked) is reported as 8 µg/mL (broth microdilution; DSM 1790).
For `Cc1ccc(CNC(=O)C(=O)c2c(C)nc3ccc(C)cn23)cc1`, the inhibition zone was 0 mm (microbial growth; ATCC10240; 2 mM, 20 h).
`CC(C)C[C@H](NC(=O)[C@H](CCC(=O)O)NC(=O)[C@H](C)NC(=O)[C@H](CC(C)C)NC(=O)[C@H](CCC(=O)O)NC(=O)[C@H](C)NC(=O)[C@H](CCC(N)=O)NC(=O)[C@H](CC(C)C)NC(=O)[C@H](CCC(=O)O)NC(=O)[C@H](Cc1ccc(O)cc1)NC(=O)[C@H](CC(C)C)NC(=O)[C@H](CCC(N)=O)NC(=O)[C@H](C)NC(=O)[C@H](CCC(=O)O)NC(=O)[C@H](CC(C)C)NC(=O)[C@H](CCC(N)=O)NC(=O)[C@H](C)NC(=O)[C@H](CC(C)C)NC(=O)[C@H](CCC(=O)O)NC(=O)[C@H](C)NC(=O)[C@@H](N)CCC(N)=O)C(N)=O` has an MIC of over 250 µM (broth microdilution; ATCC 7468; 24 h).
`CC[C@H](C)[C@H](NC(=O)[C@H](CCCCN)NC(=O)[C@H](CCCNC(=N)N)NC(=O)CNC(=O)[C@@H](NC(=O)CN)C(C)C)C(=O)NCC(=O)N[C@@H](Cc1ccccc1)C(=O)N[C@@H](CCCCN)C(=O)N[C@@H](CCCCN)C(=O)N[C@H](C(=O)N[C@@H](CC(C)C)C(=O)N[C@@H](Cc1ccccc1)C(=O)N[C@@H](Cc1ccccc1)C(=O)N[C@@H](Cc1ccccc1)C(=O)N[C@@H](CCCCN)C(=O)N[C@@H](CCCCN)C(=O)NCC(=O)N[C@@H](Cc1ccc(O)cc1)C(=O)N[C@@H](CCC(=O)O)C(=O)N[C@@H](CCCCN)C(=O)N[C@@H](C)C(=O)N[C@@H](CC(N)=O)C(=O)NCC(=O)NCC(=O)N[C@@H](Cc1ccccc1)C(=O)N[C@H](C(=O)N[C@@H](CCCCN)C(=O)N[C@@H](CCCCN)C(=O)N[C@@H](CCCCN)C(=O)NCC(=O)O)C(C)C)C(C)C` gave an MBC of 8 µM (≈ 27.7 µg/mL) (broth microdilution; ATCC 8166, CaMHB).
`CC[C@H](C)[C@H](NC(=O)[C@H](Cc1c[nH]c2ccccc12)NC(=O)[C@H](CCCCN)NC(=O)[C@H](CC(C)C)NC(=O)[C@@H](NC(=O)[C@@H](NC(=O)CNC(=O)[C@H](CCCCN)NC(=O)[C@H](Cc1c[nH]cn1)NC(=O)[C@H](CCCCN)NC(=O)[C@H](Cc1c[nH]c2ccccc12)NC(=O)[C@H](C)NC(=O)[C@H](CC(C)C)NC(=O)[C@H](CO)NC(=O)[C@@H](NC(=O)[C@H](Cc1ccc(O)cc1)NC(=O)[C@H](CCCCN)NC(=O)[C@H](CCC(N)=O)NC(=O)CNC(=O)[C@H](CCCCN)NC(=O)[C@@H](NC(=O)[C@H](C)NC(=O)[C@H](CC(C)C)NC(=O)[C@H](Cc1ccccc1)NC(=O)[C@H](CCC(N)=O)NC(=O)[C@@H](NC(=O)[C@H](CC(C)C)NC(=O)[C@H](CCCCN)NC(=O)[C@H](CCSC)NC(=O)[C@H](Cc1ccccc1)NC(=O)[C@H](C)NC(=O)[C@H](C)NC(=O)[C@@H](N)CCSC)[C@@H](C)CC)[C@@H](C)O)C(C)C)[C@@H](C)O)[C@@H](C)CC)C(=O)N[C@@H](CC(N)=O)C(N)=O` has an MIC of 6 µg/mL (broth microdilution; ATCC 49732; 24 h, 37 °C).
`CCCCCCCCCCCC(=O)C(C)C(=O)N1CCC[C@H]1C(=O)NC(C)(C)C(=O)NC(C)(C)C(=O)NC(C)(C)C(=O)N[C@](C)(CC)C(=O)NCCC(=O)N[C@@H](C)C(=O)N[C@](C)(CC)C(=O)N[C@@H](C)C(=O)N[C@@H](CC(C)C)C(=O)N[C@](C)(CC)C(=O)NCCC(=O)N[C@@H](C)C(=O)N[C@](C)(CC)C(=O)NCCC(=O)N[C@@H](C)C(=O)NC(C)(C)C(=O)NC(C)(C)C(=O)NC(C)(C)C(=O)N[C@@H](C)C(=O)N[C@@H](CC(=O)O)C(=O)O` (some centres unmarked) gave an MIC of over 128 µg/mL (ATCC 4698).
`CCc1ccn2c(C(=O)N(C)C)c(C)nc2c1` gave an inhibition zone of 0 mm (microbial growth; ATCC10240; 2 mM, 20 h).
With `CC(C)C[C@H](NC(=O)[C@H](Cc1ccccc1)NC(=O)[C@H](CCC(N)=O)NC(=O)[C@H](Cc1ccc(O)cc1)NC(=O)[C@H](CCCCN)NC(=O)[C@@H]1CCCN1C(=O)[C@H](CCCNC(=N)N)NC(=O)[C@H](CCC(N)=O)NC(=O)[C@H](Cc1c[nH]c2ccccc12)NC(=O)[C@H](CS)NC(=O)[C@H](Cc1c[nH]c2ccccc12)NC(=O)[C@H](Cc1ccccc1)NC(=O)[C@H](CCCNC(=N)N)NC(=O)[C@H](CCCCN)NC(=O)[C@H](CCCCN)NC(=O)[C@H](CCCCN)NC(=O)[C@@H](NC(=O)[C@@H](NC(=O)[C@H](CC(C)C)NC(=O)[C@@H](N)CO)C(C)C)[C@@H](C)O)C(=O)O` the MIC was 6.25 µg/mL (NCTC 2665).

Some of these lines once more:
For `Cc1ccc(CNC(=O)C(=O)c2c(C)nc3ccc(C)cn23)cc1`, the inhibition zone was 0 mm (microbial growth; ATCC10240; 2 mM, 20 h).
For `CCc1ccn2c(C(=O)NC(C)c3ccccc3)c(C)nc2c1` (centres unmarked), the inhibition zone was 15 mm (microbial growth; ATCC10240; 2 mM).
